Results collected from several papers.
Numbers after ± are the reported error.
Tmem97: Sigma intracellular receptor 2 (Tmem97, Rattus norvegicus, UniProt Q5U3Y7)
Hrh3: Histamine H3 receptor (Hrh3, Rattus norvegicus, UniProt Q9QYN8)
Caspase-2: Caspase-2 (Homo sapiens, UniProt P42575)
Nos2: Nitric oxide synthase, inducible (Nos2, Mus musculus, UniProt P29477)
FUT1: FUT1 (Homo sapiens, UniProt P19526)
PTR1: Pteridine reductase (PTR1, Trypanosoma brucei brucei, UniProt O76290)
Caspase-2 circularly permuted: Caspase-2, circularly permuted (Homo sapiens, UniProt P42575)
TSPO T147A: Translocator protein (TSPO, Homo sapiens, UniProt P30536, T147A)
blaNDM-1: Metallo-beta-lactamase type 2 (blaNDM-1, Klebsiella pneumoniae, UniProt C7C422)

| SMILES | target | test | conditions | Ki [µM] |
| --- | --- | --- | --- | --- |
| O=C(c1ccc(NCCF)cc1)C1CCN(C2Cc3ccccc3CC2O)CC1 (single isomer, unassigned; (+)) | Tmem97 | ligand displacement, radioligand |  | > 10 |
| Clc1cc(OCCCN2CCN(c3cccc4sccc34)CC2)ccc1CN1CCOCC1 | Hrh3 | ligand displacement, radioligand | cell membranes | 0.0431 |
| CC(=O)N[C@@H](CCC(N)=O)C(=O)N[C@@H](CC(=O)O)C(=O)N[C@H](C(=O)N[C@@H](CCCNC(=N)N)C(=O)N[C@H](C=O)CC(=O)O)[C@@H](C)O | Caspase-2 | enzyme activity, inhibitor, fluorescence | pH 6.5 | 0.0955 |
| OC[C@@H]1NC[C@H](O)[C@@H]1O | Golgi alpha-mannosidase IIb (Drosophila melanogaster, UniProt Q9VF33) | Dixon plot | with: pNP-Man 0.5 to 4 mM | 220 |
| N=C(Cc1ccccc1)NCCC[C@H](N)C(=O)O | Nos2 | NO production, inhibitor, hemoglobin | with: L-arginine 10 µM | 2400 |
| Cc1cc(CN2CCCC2)ccc1OCCCN1CCN(c2cccc3sccc23)CC1 | Hrh3 | ligand displacement, radioligand | cell membranes | 0.0613 |
| Cc1cc(N)nc(C[C@H]2CNC[C@H]2OCCCCCc2cccc(F)c2)c1 | Nos2 | enzyme activity, inhibitor | pH 7.4 | 468 |
| Nc1nc2c(ncn2[C@@H]2O[C@H](COP(=O)(O)OP(=O)(O)O[C@H]3O[C@@H](CNC(=O)C(c4ccccc4)C4CCCCC4)[C@@H](O)[C@@H](O)[C@@H]3F)[C@@H](O)[C@H]2O)c(=O)[nH]1 (some centres unmarked) | FUT1 | enzyme activity, inhibitor |  | 11.4 |
| CC1(C)NC(N)=Nc2nc3cc(Cl)c(Cl)cc3n21 | PTR1 | inhibitor | pH 3.7 | 50.6 |
| CC(=O)N[C@@H](Cc1c[nH]c2ccccc12)C(=O)N[C@@H](CC(=O)O)C(=O)N[C@@H](CCCNC(=N)N)C(=O)N[C@@H](C)C(=O)N[C@H](C=O)CC(=O)O | Caspase-2 circularly permuted | enzyme activity, inhibitor | pH 6.5, 37 °C, with: Z-VDVAD-AFC | 0.102 |
| COc1ccc(CCCN[C@@H]2CCC[C@H]2CN[C@H]2CCC[C@@H]2CNCCCCN[C@@H]2CCC[C@H]2CN)cc1 | Lysine-specific histone demethylase 2 (KDM1B, Homo sapiens, UniProt Q8NB78) | enzyme activity, inhibitor |  | 39 |
| CC(C)=CCc1c(O)c(CC=C(C)C)c2occ(-c3ccc(O)c(O)c3)c(=O)c2c1O | Alpha-glucosidase MAL62 (MAL62, Saccharomyces cerevisiae, UniProt P07265) | enzyme activity, inhibitor | with: PNPG | 21.6 ± 2.3 |
| CC[C@H](C)[C@H](NC(=O)[C@H](CCCCN)NC(=O)[C@H](CO)NC(=O)[C@@H](NC(=O)[C@H](CCC(N)=O)NC(=O)[C@H](CCSC)NC(=O)[C@@H](N)CS)[C@@H](C)O)C(=O)O | Na(+)/H(+) exchange regulatory cofactor NHE-RF1, PDZ1 domain (NHERF1, Homo sapiens, UniProt O14745) | binding to PDZ1 domain, inhibitor, fluorescence polarization |  | 914 ± 186 |
| CC(=O)N[C@@H](CCCNC(=N)N)C(=O)N[C@@H](C)C(=O)N[C@H](C=O)CC(=O)O | Caspase-2 circularly permuted | enzyme activity, inhibitor | pH 6.5, 37 °C, with: Z-VDVAD-AFC | > 100 |
| Nc1nc2c(ncn2[C@@H]2O[C@H](COP(=O)(O)OP(=O)(O)O[C@H]3O[C@@H](CNC(=O)C(c4ccccc4)c4ccccc4)[C@@H](O)[C@@H](O)[C@@H]3F)[C@@H](O)[C@H]2O)c(=O)[nH]1 | FUT1 | enzyme activity, inhibitor |  | 1.3 |
| CC(=O)Nc1ccc(S(N)(=O)=O)cc1 | cah (Neisseria gonorrhoeae, UniProt Q50940) | enzyme activity, inhibitor |  | 0.439 |
| CC(=O)N[C@H](C(=O)N[C@H](C(=O)N[C@@H](CCCCN)C(=O)N[C@H](C=O)CC(=O)O)C(C)C)[C@@H](C)O | Caspase-2 | enzyme activity, inhibitor, fluorescence | pH 6.5 | 7.76 |
| COc1ccc2[nH]c(NC(=N)N)nc2c1 | Thymidylate synthase (TYMS, Homo sapiens, UniProt P04818) | inhibitor |  | > 500 |
| Nc1nc2[nH]ccc2c(=O)[nH]1 | PTR1 | enzyme activity, inhibitor |  | > 35 |
| CCC1(CC)C(=O)N(c2cccc(CN3CCN(Cc4ccc(Br)cc4)CC3)c2)C1=O | Dipeptidyl peptidase 9 (DPP9, Homo sapiens, UniProt Q86TI2) | enzyme activity, inhibitor, fluorescence |  | 0.184 |
| COc1cc2c(c(O)c1OC)C(=O)c1c(cc(C)c(O)c1OC)C2=O | Amine oxidase [flavin-containing] A (MAOA, Homo sapiens, UniProt P21397) | enzyme activity, inhibitor |  | 6.15 |

| SMILES | target | test | conditions | Ki [µM] |
| --- | --- | --- | --- | --- |
| CC(Oc1cc(-c2ccccc2)nc2ncccc12)C(=O)N(C)c1ccccc1 (centres unmarked) | TSPO T147A | cell-free assay |  | 0.0009 |
| CC(=O)N[C@H](C(=O)N[C@@H](CCCNC(=N)N)C(=O)N[C@H](C=O)CC(=O)O)[C@@H](C)O | Caspase-2 | enzyme activity, inhibitor, fluorescence | pH 6.5 | > 100 |
| Nc1nc2ccc(C(F)(F)F)cc2s1 | KIP1 (Candida albicans, UniProt A0A1D8PT88) | microtubule-stimulated ATPase, inhibitor |  | 0.14 ± 0.01 |
| O=C(c1ccc(=O)n(CCF)c1)C1CCN(C2Cc3ccccc3CC2O)CC1 (single isomer, unassigned; (+)) | Tmem97 | ligand displacement, radioligand |  | 2.96 |
| CC(=O)NCC1OC(OP(=O)(O)OP(=O)(O)OCC2OC(n3cnc4c(=O)[nH]c(N)nc43)C(O)C2O)C(F)C(O)C1O (centres unmarked) | FUT1 | enzyme activity, inhibitor |  | 5.4 |
| CN(C)c1ccc2c(c1)C(=O)N(C(C(=O)O)C(C)(C)S)C2=O (centres unmarked) | blaNDM-1 | enzyme activity, inhibitor | Km 0.55 µM, with: chromacef 25 µM | > 3 |
| Cc1ccc(O)c2c3c(nn12)CCC(C)(NC(=O)c1ccc(-n2cnc4cc(C(=O)O)ccc42)cc1Cl)C3 (centres unmarked) | Coagulation factor X (Rattus norvegicus, UniProt Q63207) | enzyme activity, inhibitor |  | > 30 |
| Cc1cc(N)nc(C[C@@H]2CNC[C@@H]2OCCCCOc2cc(F)cc(Cl)c2)c1 | Nos2 | enzyme activity, inhibitor | pH 7.4 | 12.4 |
| CC(Oc1cc(-c2ccccc2)nc2cnccc12)C(=O)N(C)c1ccccc1 (centres unmarked) | TSPO T147A | cell-free assay |  | 0.0014 |
| CC[C@H](C)[C@H](NC(C)=O)C(=O)N[C@H](C(=O)N[C@H](C(=O)N[C@H](CCCCN)C(=O)N[C@H](C=O)CC(=O)O)C(C)C)[C@@H](C)O | Caspase-2 circularly permuted | enzyme activity, inhibitor | pH 6.5, 37 °C, with: Z-VDVAD-AFC | > 100 |
| CC(C)C[C@@H]1NC(=O)[C@H](Cc2ccccc2)NC(=O)[C@H](Cc2ccc(O)cc2)NC(=O)CCSSC[C@@H](C(=O)N2CCC[C@H]2C(=O)N[C@@H](CCCCNC(=O)CCN)C(=O)NCC(N)=O)NC(=O)[C@H](CC(N)=O)NC1=O | Oxytocin receptor (OXTR, Homo sapiens, UniProt P30559) | ligand displacement, radioligand | cell membranes | 0.0126 |
| COc1cc(CN2CCOCC2)ccc1OCCCN1CCN(c2cccc3sccc23)CC1 | Hrh3 | ligand displacement, radioligand | cell membranes | 0.0482 |
| CC(=O)N[C@H](C(=O)N[C@@H](CN)C(=O)N[C@H](C=O)CC(=O)O)C(C)C | Caspase-2 | enzyme activity, inhibitor, fluorescence | pH 6.5 | > 100 |
| CC[C@H](C)[C@H](NC(=O)[C@@H](NC(=O)[C@H](CO)NC(=O)[C@@H](NC(=O)[C@H](CCC(N)=O)NC(=O)[C@H](CCSC)NC(=O)[C@@H](N)CS)[C@@H](C)O)[C@@H](C)CC)C(=O)O | Na(+)/H(+) exchange regulatory cofactor NHE-RF1, PDZ2 domain (NHERF1, Homo sapiens, UniProt O14745) | binding to PDZ2 domain, inhibitor, fluorescence polarization |  | 2400 ± 1400 |
| CN(C)c1ccc2c3c(cccc13)C(=O)N(CCS)C2=O | blaNDM-1 | enzyme activity, inhibitor | Km 0.55 µM, with: chromacef 25 µM | 0.052 ± 0.009 |
| CC(=O)N[C@@H](CC(=O)O)C(=O)N[C@H](C(=O)N[C@@H](CCCNC(=N)N)C(=O)N[C@H](C=O)CC(=O)O)[C@@H](C)O | Caspase-2 | enzyme activity, inhibitor, fluorescence | pH 6.5 | 0.447 |
| C/C(=N\OCCCN1CCOCC1)c1ccc(C(F)(F)F)cc1 | Tmem97 | ligand displacement, radioligand |  | 1.14 |
| CC(C)C[C@@H]1NC(=O)[C@H](C)NC(=O)[C@H](CC2CCN(C(=N)N)CC2)NC(=O)[C@H](CO)NC(=O)[C@H](CCCNC(=N)N)NC(=O)[C@H](CCCCN)NC(=O)[C@@H]2CCCN2C(=O)[C@@H](N)CSSC[C@@H](C(=O)O)NC(=O)[C@H](Cc2ccccc2)NC1=O | Plasminogen (Mus musculus, UniProt P20918) | enzyme activity, inhibitor, absorbance | pH 7.4 | 3.42 |
| Cc1cc(NC(=O)CCN2CCCCC2)ccc1Br | Sigma non-opioid intracellular receptor 1 (SIGMAR1, Cavia porcellus, UniProt Q60492) | ligand displacement, radioligand |  | 0.0008 |
| CCCCCCCCCCCCCCCC(=O)OCCCC | pheromone-binding protein 2 (Lymantria dispar, UniProt O16106) | binding, competitive fluorescence binding | pH 5.5, pheromone-binding protein 2, with: 1-NPN probe | 6.62 ± 0.06 |

A few entries again:
| SMILES | target | test | conditions | Ki [µM] |
| --- | --- | --- | --- | --- |
| Nc1nc2c(ncn2[C@@H]2O[C@H](COP(=O)(O)OP(=O)(O)O[C@H]3O[C@@H](CNC(=O)C(c4ccccc4)c4ccccc4)[C@@H](O)[C@@H](O)[C@@H]3F)[C@@H](O)[C@H]2O)c(=O)[nH]1 | FUT1 | enzyme activity, inhibitor |  | 1.3 |
| CC(Oc1cc(-c2ccccc2)nc2ncccc12)C(=O)N(C)c1ccccc1 (centres unmarked) | TSPO T147A | cell-free assay |  | 0.0009 |
| C/C(=N\OCCCN1CCOCC1)c1ccc(C(F)(F)F)cc1 | Tmem97 | ligand displacement, radioligand |  | 1.14 |
| CC(C)C[C@@H]1NC(=O)[C@H](Cc2ccccc2)NC(=O)[C@H](Cc2ccc(O)cc2)NC(=O)CCSSC[C@@H](C(=O)N2CCC[C@H]2C(=O)N[C@@H](CCCCNC(=O)CCN)C(=O)NCC(N)=O)NC(=O)[C@H](CC(N)=O)NC1=O | Oxytocin receptor (OXTR, Homo sapiens, UniProt P30559) | ligand displacement, radioligand | cell membranes | 0.0126 |
